Assay results of several laboratories.
Lines come from different studies, so protocols differ. Several values in a cell are separate wells, animals, samples, runs or records. ± marks the error that the study gave.
CDK2 with cyclin A: Cyclin-dependent kinase 2, with cyclin A (CDK2, Homo sapiens, UniProt P24941)

SMILES | tested on | test | setting | scale | endpoint | result
Cn1cc(-n2cnc3c(NCc4nc5cc(Cl)c(Cl)cc5[nH]4)nc(N4CCOCC4)nc32)cn1 | MDA-MB-231 | qRT-PCR, measured: ATR | 0.05 µM, 6 h, unit not given | relative to: DMSO | mRNA level | 0.691 and 0.649 and 0.702
O=C(C[C@@H](C(F)F)n1ccc(F)n1)N1CCC(O)(Cn2cnc3c(cnn3-c3ccc(F)cc3)c2=O)CC1 | CHP-212 resistant | annexin V/PI flow cytometry | 0.3 µM, 48 h |  | apoptotic cells | 10.7%
Cc1cnc(NC2CCOCC2)nc1-n1cnc(C(=O)NC(CN)c2cc(F)cc(Cl)c2)c1 (stereo not shown) | MINO | flow cytometry | 1 µM, 72 h |  | S phase cells | 6.3%
Cc1cccc(-c2[nH]c(CNc3ccccc3F)nc2-c2ccc3ncnn3c2)n1 | MM1.S pomalidomide-resistant | XTT | 3.5 µM | relative to: untreated | viability | 17%
C=CCn1c(=O)c2cnc(Nc3ccc(N4CCN(C)CC4)cc3)nc2n1-c1ccc2c(n1)[C@@](O)(CC)CC2 | NCI-H1048 | flow cytometry, measured: pHH3-γH2Ax+ | concentration not given |  | G2/M cells in subpopulation | 10.9%
C[C@H](CCC(=O)NCCS(=O)(=O)O)[C@H]1CC[C@H]2[C@@H]3CC[C@@H]4C[C@H](O)CC[C@]4(C)[C@H]3CC[C@]12C | human ADPKD PLD cystic cholangiocytes | cell confluence | 20 µM, 24 h | relative to: untreated | proliferation increase | 54%
Cc1cc(Nc2ncc(Cl)c(Nc3ccccc3S(=O)(=O)C(C)C)n2)c(OC(C)C)cc1C1CCNCC1 | CLB-GE | phosphoproteomics LC-MS/MS, measured: RECQL4 phosphorylation | 200 nM, 60 min | relative to: untreated | log2 fold change | -2.36
Cn1cc(Nc2nccc(-c3ccc4c(c3)CN(C3COC3)CC[C@H]4NC(=O)c3cn(C(C)(C)C)nn3)n2)cn1 | mouse splenic B cells | measured: SAPK/JNK signalling | 30 mg/kg, IgD-activated in vivo | relative to: vehicle, direction not given | pathway activation z-score | 2.18
COc1cnc2cccc(N3CCc4c(cc(Cn5ccnc5C)cc4-c4cn(C)nc4C(F)(F)F)C3=O)c2c1 | NCI-H520 | cell growth, inhibitor | 120 h |  | EC50 | > 30 µM
CCOC(=O)C1=C(C)NC2=C(C(=O)OC(c3cc(OC)c(OC)c(OC)c3)C2)C1c1ccccc1Cl (stereo not shown) | J774.A1 | cytotoxicity |  |  | EC50 | > 20 µM
N#C/C(=C\c1c[nH]nc1-c1ccc(Cl)c(Cl)c1)C(=O)O | LX-2 | qPCR, measured: ACTA2 | 10 µM, hepatic stellate cell activation, added: TGFβ | relative to: untreated | mRNA level | decreased
CCn1cc(-c2cc(Cn3ccnc3)cc3c2CCN([C@H](c2cc(OC)ccn2)C2CC2)C3=O)c(C(F)(F)F)n1 | YD-10B | cell growth, inhibitor | 120 h |  | EC50 | 14.8 µM
Cc1nn(CC(F)(F)F)cc1Nc1ncc(Br)c(NCc2ccc(S(N)(=O)=O)cc2)n1 | THP1-Dual | western blot | 20 µM, added: poly(I:C) | relative to: DMSO | phospho-TBK1 to TBK1 ratio | 0.33 and 0.352 and 0.617
O=c1[nH]nc(OCCCc2ccc(Cl)cc2)c(NCc2cccnc2)c1Br | HEK-293T | RNA-seq GSEA, measured: HALLMARK_INTERFERON_ALPHA_RESPONSE | concentration not given | direction not given | normalized enrichment score | -1.74
O=C(Nc1nnc2n3c(=S)[nH][nH]c3nc(-c3ccc(Cl)cc3)c1-2)c1ccccc1 | MDA-MB-435 | SRB | 10 µM, NCI60 single-dose screen | relative to: untreated | cell growth | 103%
CC(C)C[C@H](NC(=O)CNC(=O)c1cc(Cl)ccc1Cl)B(O)O | BRD4-HiBiT cells | BRD4 degradation rescue, inhibitor | 8 h, added: dBET6 500 nM |  | EC50 | 0.149 µM
CC(C)(c1ccc(O)cc1)c1ccc(O)cc1 | HepG2 spheroids | Hoechst flow cytometry | 0.10 µM, 96 h |  | G2 phase cells | 13.3 ± 2.14%
CCCC1=C(C(=O)OCC)C(c2ccc(Cl)cc2C)C2=C(CC(c3ccc(Cl)c(OC)c3)OC2=O)N1 (stereo not shown) | J774.A1 | cytotoxicity |  |  | EC50 | > 20 µM
C[C@]12CC[C@@H]3c4ccc(O)cc4CC[C@H]3[C@@H]1CC[C@@H]2OC(=O)CCC1CCCC1 | MDA-MB-231 BAX/BAK siRNA knockdown | cell viability, CellTiter-Glo |  | direction not given | Z score | 1.2
CC1(C)COc2ccc(F)cc2CN2c3nc4c(cnn4cc3OC[C@H]2C(F)F)C(=O)N1 | Ba/F3 EML4-ALK v1, no mutation | cell viability |  |  | Emax | 99.9%
Nc1cccc2c1CN(C1CCC(=O)NC1=O)C2=O (stereo not shown) | BRD4-HiBiT cells | BRD4 degradation rescue, inhibitor | 2 h, 50% degradation rescued, added: dBET6 500 nM |  | EC50 | 2.47 µM
CCCCC[C@H](O)/C=C/[C@H]1C(=O)C[C@H](O)[C@@H]1C/C=C\CCCC(=O)O | HEK293-A2AR cells, SLCO2A1 knockout | HTRF cAMP | 5 nM |  | HTRF cAMP signal | 335 a.u. and 317 a.u. and 329 a.u.
CC#CC(=O)N1CCC[C@H]1c1nc(-c2ccc(C(=O)Nc3ccccn3)cc2)c2c(N)nccn12 | TMD8 | calcium flux, FLIPR | 4 h preincubation, added: anti-IgM |  | maximum inhibition | 47.4%
CC/C(=N\NC(=O)NCc1cccc(O)c1)c1ccc(O)c(C)c1O | SK-OV-3 | Western blot, measured: TAZ | 10 µM, 1 h, 3D gellan gum culture, unit not given | relative to: β-actin | protein level | 0.91 ± 0.25
Cn1cc(-c2ccc(-c3cncc(Cl)c3N3CCC4(CCNC4=O)CC3)cc2)cn1 | COLO 205 | gene expression, microarray, measured: TCAF2 mRNA | concentration not given, 6 h | relative to: untreated cells | log2 fold change | 5.63
CCn1c(SCC(=O)Nc2ccccc2OC)nnc1-c1c[nH]c2ccccc12 | CDK2 with cyclin A |  |  |  | Kd | > 100 µM

SMILES | tested on | test | setting | scale | endpoint | result
CCCCN1C[C@H](O)[C@@H](O)[C@@H](O)[C@H]1CO | sample B patient fibroblasts | Gb3 level lowering, LC-MS/MS, measured: Gb3 d18:1/22:0 | 216 h |  | IC50 | 10.7 µM
C[C@@H](O)[C@H](NC(=O)Nc1ncnc2c1ncn2[C@@H]1O[C@H](CO)[C@@H](O)[C@H]1O)C(=O)O | mock-transfected cells | TGFα shedding, agonist | 1 µM | relative to: unstimulated vehicle control | AP-TGFα release | 2.16% and 2.64% and 4.18%
Nc1ccn([C@@H]2O[C@H](CO)[C@@H](O)[C@@H]2O)c(=O)n1 | THP-1 SAMHD1 knockout | cell viability, MTS | 3 days | relative to: THP-1 shScr over SAMHD1 knockout | IC50 fold change | 93 fold
COc1cc(/C=C/C(=O)N2CCC=CC2=O)cc(OC)c1OC | MDA-MB-468 | qRT-PCR, measured: Bcl-xL | 30 µM, 6 h | relative to: time zero | mRNA expression | 57.8 ± 14.6%
O=C(NN=Cc1ccc(Br)cc1)C1CC(=O)N(c2ccc(F)cc2F)C1 (stereo not shown) | PPC-1 | wound healing | 10 µM, 12 h |  | cell migration | inhibited
C[C@H]1[C@@H](O)O[C@@H]2O[C@@]3(C)CC[C@H]4[C@H](C)CC[C@@H]1[C@@]24OO3 | THP-1 | annexin V/PI flow cytometry, measured: annexin V-/PI+ | 3.2 µM, 24 h |  | necrotic cells | 0%
CCCCc1oc2ccc(NS(C)(=O)=O)cc2c1C(=O)c1ccc(OCCCN(CCCC)CCCC)cc1 | human embryonic stem cell aggregates | mRNA level, microarray, measured: LRP2 | 0.5 µM, 120 h | relative to: untreated, up-regulated | fold change | 3.6 fold
COc1ccc(NC(=S)N/N=C/c2cccc3cc4ccccc4nc23)cc1 | HeLa | annexin V/PI | concentration not given, 48 h, dosed at IC25, added: N-acetylcysteine |  | late apoptotic cells | 7.7%
CCOC(=O)C1=C(C)NC2=C(C(=O)OC(c3cccc(OC)c3)C2)C1c1ccccc1Cl (stereo not shown) | J774.A1 | cytotoxicity |  |  | EC50 | > 20 µM
Cc1nc(NC(=O)N2CCC[C@H]2C(N)=O)sc1-c1ccnc(C(C)(C)C(F)(F)F)c1 | KYSE-510 | cell growth, CellTiter-Glo | 120 h |  | Hill coefficient GR curve | 1.15
CCOC(=O)C1=C(C)NC2=C(C(=O)CC(c3ccc(Cl)c(OC)c3)C2)C1c1ccccc1Cl (stereo not shown) | J774.A1 | cytotoxicity |  |  | EC50 | > 20 µM
Cl.Cl.c1cc(N2CCCCC2)ccc1Nc1cc2ncc(OCC3CCNCC3)nc2cc1-c1ccc(N2CCCCC2)cc1 | MOLM-13 | RT-qPCR, measured: Myc and Meis1 | 0.3 and 1 µM, 3 days |  | mRNA level | decreased
O=C(/C=C/C=C/C=C/C1CCCCC1)NC1=C[C@@](O)(/C=C/C=C/C=C/C(=O)NC2=C(O)CCC2=O)[C@@H]2O[C@@H]2C1=O | SW837 | cell growth, CellTiter-Glo | 78 h |  | GI50 | 16.1 µM
CC(C)C[C@@H](C=O)NC(=O)[C@H](CC(C)C)NC(=O)[C@H](CC(C)C)NC(=O)OCc1ccccc1 | BRD4-HiBiT cells | BRD4 degradation rescue, inhibitor | 4 h, 50% degradation rescued, added: dBET6 500 nM |  | EC50 | 0.393 µM
Cc1nn(-c2nc3c(F)cc(F)cc3s2)c(O)c1C(c1cccc(C(F)(F)F)c1)c1c(C)nn(-c2nc3c(F)cc(F)cc3s2)c1O | THP1-Dual | IFN luciferase reporter | 5 µM, added: HT-DNA |  | inhibition | 3.62% and 11.8% and 5.47% and -11.9% and -12.2% and 6.12%
CCCCN1CCN(c2ccc3[nH]c(-c4ccc5[nH]c(-c6ccc(OCC)cc6)nc5c4)nc3c2)CC1 | MDA-MB-435 | SRB | 10 µM, 48 h |  | growth percent | 55.1%
CC(C)C[C@H](NC(=O)[C@H](Cc1ccccc1)NC(=O)c1cnccn1)B(O)O | BRD4-HiBiT cells | BRD4 degradation rescue, inhibitor | 24 h, added: dBET6 500 nM |  | EC50 | 0.0177 µM
CCn1cc(-c2cc(Cn3ccoc3=N)cc3c2CCN([C@@H](C)c2cc(OC)ccn2)C3=O)c(C(F)(F)F)n1 | MOLM-13 | cell growth, inhibitor | 120 h |  | EC50 | 0.285 µM
Cc1nn(-c2nc3c(F)cc(F)cc3s2)c(O)c1C(c1ccccc1C(F)(F)F)c1c(C)nn(-c2nc3c(F)cc(F)cc3s2)c1O | THP1-Dual | IFN luciferase reporter | 20 µM, added: HT-DNA |  | inhibition | 87.8% and 57.9% and 58.5% and 58.4% and 88.1% and 52.7%
C#CCOc1cc(C(=O)Nc2cc(OCCCN)c3ccccc3n2)nc(C(=O)Nc2cc(OCCCN)c3ccccc3n2)c1 | HT-1080 | cell viability, CellTiter-Glo | 72 h | relative to: IC50 HT-1080 over WI-38 | selectivity ratio | 1.3
O=P(O)(O)C(O)(Cn1ccnc1)P(=O)(O)O | hFOB 1.19 | AlamarBlue | 7.5 µM, 72 h | relative to: control | viability | 100 ± 1%
Cn1c(Nc2nc3ccc(C(F)(F)F)cc3s2)nc2cc(C(=O)NCCOCCO)ccc21 | SH-SY5Y | RNA-seq, measured: PTX3 mRNA | 5 µM, 5 h | relative to: untreated cells | fold change | 2.23
CCN(CC)C(=O)N1CCN(C)CC1 | MDA-MB-231 BAX/BAK siRNA knockdown | cell viability, CellTiter-Glo |  | direction not given | Z score | 1.7
CC(C)NCC(O)c1ccc(O)c(O)c1 (stereo not shown) | mouse ventricular cardiomyocytes |  | dose not given, 0.323 s |  | sarcomere length | 1.8 µm
CCn1c(SCC(=O)Nc2ccccc2OC)nnc1-c1ccco1 | CDK2 with cyclin A |  |  |  | Kd | > 100 µM
CC(C)(C)c1ccc(C(O)CCCN2CCC(C(O)(c3ccccc3)c3ccccc3)CC2)cc1 (stereo not shown) | MDA-MB-231 BAX/BAK siRNA knockdown | cell viability, CellTiter-Glo |  | direction not given | Z score | -1.14

For quick reference, copied from above:
SMILES | tested on | test | setting | scale | endpoint | result
O=C(/C=C/C=C/C=C/C1CCCCC1)NC1=C[C@@](O)(/C=C/C=C/C=C/C(=O)NC2=C(O)CCC2=O)[C@@H]2O[C@@H]2C1=O | SW837 | cell growth, CellTiter-Glo | 78 h |  | GI50 | 16.1 µM
CC(C)C[C@@H](C=O)NC(=O)[C@H](CC(C)C)NC(=O)[C@H](CC(C)C)NC(=O)OCc1ccccc1 | BRD4-HiBiT cells | BRD4 degradation rescue, inhibitor | 4 h, 50% degradation rescued, added: dBET6 500 nM |  | EC50 | 0.393 µM
Cc1nn(-c2nc3c(F)cc(F)cc3s2)c(O)c1C(c1cccc(C(F)(F)F)c1)c1c(C)nn(-c2nc3c(F)cc(F)cc3s2)c1O | THP1-Dual | IFN luciferase reporter | 5 µM, added: HT-DNA |  | inhibition | 3.62% and 11.8% and 5.47% and -11.9% and -12.2% and 6.12%
CCCCN1CCN(c2ccc3[nH]c(-c4ccc5[nH]c(-c6ccc(OCC)cc6)nc5c4)nc3c2)CC1 | MDA-MB-435 | SRB | 10 µM, 48 h |  | growth percent | 55.1%
